Measurements pooled from the literature.
Each numbered part is a random draw from the data of one study; scales do not carry over between parts. Changes are numbered by the printed parent chain.

Series 1 — method: DHFR PCA, deep sequencing; medium: yeast; added: (+)-ABA 4.8 µM; relative to: wild-type fitted maximum; reading: higher = stronger binding
Target: ABI1, truncated, D143A, DHFR fusion (Arabidopsis thaliana)
Notes: methotrexate growth selection, single substitutions
Starting sequence: PYL1, truncated, DHFR fusion (Arabidopsis thaliana); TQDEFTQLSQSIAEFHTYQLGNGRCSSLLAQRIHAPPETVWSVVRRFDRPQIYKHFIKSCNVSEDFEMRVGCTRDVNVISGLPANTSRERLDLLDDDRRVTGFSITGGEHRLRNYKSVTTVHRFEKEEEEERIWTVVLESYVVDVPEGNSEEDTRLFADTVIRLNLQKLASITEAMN
| Substitution | relative binding score [%] |
| --- | --- |
| S87F | 12.3 |
| S11N | 53.3 |
| I79E | 29.8 |
| R46K | 49.2 |
| V62M | 55.8 |
| S80A | 4.75 |
| T1S | 72.1 |
| E174W | -4.67 |
| K126Y | 73.3 |
| I172Y | 58.5 |
| S150P | 10 |
| Y141Q | -1.97 |
| G71L | -6 |

Series 2 — method: protein-binding microarray; form: double-stranded DNA, one strand shown; medium: in vitro; concentration: 250 nM; notes: 60-bp whole probe; added: salmon DNA 0.4 mg/ml; relative to: random background probes; reading: higher = stronger binding; all sequences stand within: GCCTAGCAC … GTCTTGATTCGCTTGACGCTGCTG
Target: Interferon regulatory factor 5, full length, phosphomimetic (IRF5, Homo sapiens, UniProt Q13568-2, residues 1-514, K96S/S451D/S453D/S456D/S462D)
| Sequence | log fluorescence |
| --- | --- |
| GACGATTTCAGTCTCGATACGTGCTAG | 2.02 z-score |
| GACGTACTGAGTATCGAGACGTGCTAG | 1.29 z-score |
| CAGCATCTGCAACATCTACAAGTGCTA | -0.162 z-score |
| TTAGGTATCTGACTGGGTTAGTGCTAG | -0.188 z-score |
| GACGGTAGCGGGTTTCGGGACGTGCTA | 1.81 z-score |
| TGAGATTTCAGTTTCGATTAGTGCTAG | 10.1 z-score |
| GGCCGTCTGAGCTCCGTAGCGTGCTAG | -0.802 z-score |
| TTAGATTCGAGTTTCGATTAGTGCTAG | 9.08 z-score |
| TTAGGTCTCGGTCTGGGTTAGTGCTAG | 0.436 z-score |
| GACGGTATCGATACTGGGGACGTGCTA | 7.42 z-score |
| GACGATATCCTTATCCTGACGTGCTAG | 0.114 z-score |
| GACGGTTTCCTTTACCTGACGTGCTAG | 0.555 z-score |
| ACAAAGATTTTTATCAAATGGTGCTAG | 0.461 z-score |
| GACGATTTCAGTCCCGAGACGTGCTAG | 0.873 z-score |
| GACTCTTTCTGTCAGTTTTGGTGCTAG | 5.27 z-score |
| GAGTTCCTCTCTAGGCACTGGTGCTAG | -0.101 z-score |
| GACGGTTTTGGTTTCGGGACGTGCTAG | 7.08 z-score |
| TCAGTTTGCCCTATTTAACTGTGCTAG | 0.383 z-score |
| CACTATTTAAGAACTATGCACGTGCTA | 0.373 z-score |
| GCCGAACTGGGGACTGGAGACGTGCTA | -0.631 z-score |

Series 3 — method: universal PBM; form: double-stranded DNA, one strand shown; medium: in vitro; concentration: not given; reading: higher = stronger binding
Target: Sal-like protein 4, full length isoform B (SALL4, Homo sapiens, UniProt Q9UJQ4-2, residues 1-616)
Notes: 8-mer, flanks averaged, mean of replicates
Construct (chain): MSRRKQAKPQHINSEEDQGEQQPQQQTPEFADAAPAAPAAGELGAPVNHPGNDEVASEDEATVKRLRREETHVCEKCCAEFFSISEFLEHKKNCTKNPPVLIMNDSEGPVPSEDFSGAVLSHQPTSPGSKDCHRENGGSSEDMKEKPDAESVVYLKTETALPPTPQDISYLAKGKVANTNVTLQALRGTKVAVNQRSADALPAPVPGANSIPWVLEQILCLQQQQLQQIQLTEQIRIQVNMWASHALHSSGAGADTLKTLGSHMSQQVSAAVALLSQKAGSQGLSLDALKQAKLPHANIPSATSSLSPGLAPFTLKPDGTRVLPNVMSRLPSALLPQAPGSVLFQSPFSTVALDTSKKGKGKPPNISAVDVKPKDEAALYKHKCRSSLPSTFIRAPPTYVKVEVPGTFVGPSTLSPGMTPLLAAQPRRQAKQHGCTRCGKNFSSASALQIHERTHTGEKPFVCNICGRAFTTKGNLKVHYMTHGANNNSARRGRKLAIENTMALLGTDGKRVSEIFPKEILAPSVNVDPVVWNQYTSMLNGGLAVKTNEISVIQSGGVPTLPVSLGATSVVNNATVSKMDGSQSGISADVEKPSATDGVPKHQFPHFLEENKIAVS
| Sequence | E-score |
| --- | --- |
| AGCATCTG | -0.0844 |
| TCTCTCCA | -0.105 |
| CGGTATAC | -0.0998 |
| GAAGCTGC | -0.289 |
| AAAACAAC | 0.0606 |
| ATCGGTAC | -0.00153 |
| GCCCTCCA | -0.222 |
| ACTACTCT | 0.00174 |
| ACTCCGTG | -0.113 |
| TGAATACA | 0.29 |
| ACCCGTAT | -0.0847 |
| ACAGCCTG | -0.081 |
| CTCGTGTC | -0.174 |
| AGTTCTGG | -0.184 |
| ACCCTTTC | 0.115 |
| CAGCGATA | 0.0195 |
| CCCAAAGG | -0.198 |
| AAATAATG | 0.318 |
| ATAACATC | 0.225 |
| CGATCGCA | 0.013 |
| GTCGTCGA | -0.135 |
| TAGGCTGA | -0.109 |

Series 4 — method: RNA Bind-n-Seq; form: RNA; medium: in vitro; concentration: 200 nM; notes: whole 134-nt RNA, ends assumed; added: 150 mM KCl; relative to: input library; reading: higher = stronger binding
Target: Ras GTPase-activating protein-binding protein 1, full length (G3BP1, Homo sapiens, UniProt Q13283)
Chain of UniProt Q13283 (whole entry, looked up): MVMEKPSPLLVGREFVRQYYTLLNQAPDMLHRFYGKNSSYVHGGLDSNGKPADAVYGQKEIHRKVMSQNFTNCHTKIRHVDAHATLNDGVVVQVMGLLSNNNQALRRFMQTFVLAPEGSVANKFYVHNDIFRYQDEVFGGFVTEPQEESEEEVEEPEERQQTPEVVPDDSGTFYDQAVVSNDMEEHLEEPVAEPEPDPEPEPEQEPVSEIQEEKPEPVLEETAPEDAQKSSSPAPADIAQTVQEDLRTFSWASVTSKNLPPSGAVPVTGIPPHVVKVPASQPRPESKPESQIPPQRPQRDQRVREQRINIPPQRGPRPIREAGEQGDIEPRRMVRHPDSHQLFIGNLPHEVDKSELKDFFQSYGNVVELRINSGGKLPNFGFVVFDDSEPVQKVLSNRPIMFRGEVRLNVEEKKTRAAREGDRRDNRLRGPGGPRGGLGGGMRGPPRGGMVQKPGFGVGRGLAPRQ
All sequences stand within: GGGAGUUCUACAGUCCGACGAUC … UGGAAUUCUCGGGUGUCAAGG
| Sequence | log2 enrichment |
| --- | --- |
| AAGUCCUGUGCUACACAUCGUAUGUACCGAAUCGGGGAGGGGUUUGGGGUUUGGGGAAAGUAUUAUGUUACGCCGUUCGGAUCUGCACUU | 0.941 |
| CACAGACAACACGCACCCACACAGACACAGAGGGAAGGGGUUGGGAUGGGGACAGGGUGCACAGCAGGGCGGGGUAGGAUCCCAGCCCCU | 1.79 |
| AAGUCCUGUGCUACACAUCGUAUGUACCGAAUCGGAAAGGUUUUUGGUUUUUUUGGAAAGUAUUAUGUUACGCCGUUCGGAUCUGCACUU | -1.45 |
| UCAAGUCCUGUGCUACACAUCGUAUGUACCGAAUCGGUUUGGGGUUUGGUUUGGAAAGUAUUAUGUUACGCCGUUCGGAUCUGCACUUCC | -0.417 |
| UAUGAGGAUGAGUUGGUGCCCCUUUUUGAGAAGGCCGGACCCAUUUGGGAUCUACGUCUUAUGAUGGAUCCACUGUCCGGUCAGAAUAGA | 0.3 |
| CAAGUCCUGUGCUACACAUCGUAUGUACCGAAUCGGGUGGGUUUUUGGGAAAGGGAAAGUAUUAUGUUACGCCGUUCGGAUCUGCACUUC | 0.218 |
| CAAGUCCUGUGCUACACAUCGUAUGUACCGAAUCGGAAAGGGGAAAGGGAAAGGGAAAGUAUUAUGUUACGCCGUUCGGAUCUGCACUUC | 0.182 |
| UGGAGAAGCGCUACCUGGCUGCUCAGCGUGAGGCAACAUCCAUCCAUGACCUCAAUGACAAGCUGGAGAAUGAGCUGGCCAACAAGGAGU | -0.758 |
| AGUCCUGUGCUACACAUCGUAUGUACCGAAUCGGGCCCCGGGGCCCCGGGGCCCCGGGAAAGUAUUAUGUUACGCCGUUCGGAUCUGCAC | 0.374 |
| UCAAGUCCUGUGCUACACAUCGUAUGUACCGAAUCGGUUUGGAGGAAAAAAAGGAAAGUAUUAUGUUACGCCGUUCGGAUCUGCACUUCC | -0.624 |
| UAGUCCAGCAUCAAGAUUCGCCGGCCUGGAUACAAAUCAGCGACUUACAGCUUUAGCUGAAGACAGACCGUUAUUUGAUGGACCUAGUAG | -1.56 |
| UCCUCAAGUCCUGUGCUACACAUCGUAUGUACCGAAUCGGGCGGCGGGCGGAAAGUAUUAUGUUACGCCGUUCGGAUCUGCACUUCCAGC | -0.625 |
| GCAGGAAGUAAAAACAAAUGGAAAUGCUUCGGAUAGUGGCAGGGGUGGGGGUUGCUAAGGAAAGGGUGGGAUGGGAGUGGGGAAAGAGUU | 1.41 |
| AGUCCUGUGCUACACAUCGUAUGUACCGAAUCGGGGAAAAAAAGGGGUGGGGUGGGGAAAGUAUUAUGUUACGCCGUUCGGAUCUGCACU | 0.289 |

Series 5 — target: CCNB2, cyclin fold, Cln2 fusion (human); method: yeast growth competition, sequencing; medium: yeast; notes: weak parent motif; relative to: not given; reading: higher = stronger binding
Starting sequence: RBL1 docking peptide (human); GSAKRRLFGEDPP
| Substitution | normalised enrichment score |
| --- | --- |
| P12C | -0.149 |
| K4C | 0.222 |
| G9Y | -0.067 |
| F8V | -0.000904 |
| F8Q | -0.0275 |
| S2V | 0.157 |
| G1S | 0.176 |
| G1H | 0.058 |
| P13G | -0.0394 |
| P12V | 0.0372 |
| E10A | 0.403 |
| D11F | 0.186 |
| G9T | 0.391 |
| E10L | 0.482 |
| E10V | -0.473 |
| L7A | -0.13 |
| G9C | 0.561 |
| L7Q | 0.261 |
| F8R | 0.308 |
| A3I | 0.042 |
| L7N | 0.329 |
| R6K | 0.481 |
| E10P | 0.0595 |
| L7Y | 0.0102 |
| P12K | 0.264 |

Single results of other studies
| Substance | target | assay | test system | conditions | how to read | quantity | result |
| --- | --- | --- | --- | --- | --- | --- | --- |
| PhoQ, residues 284 288 289 292 302 303 SSCCRF | PhoP, residues 12 14 15 18 19 NMSFL (Escherichia coli, UniProt P23836) | Sort-seq, refers to: YFP reporter | E. coli | PhoQ-PhoP variant library, added: 10 µM Mg2+ | relative to: high Mg2+ state, higher = stronger signaling | fold induction | 10.2 |

Repeated from above (series 2):
| Sequence | log fluorescence |
| --- | --- |
| GACGGTATCGATACTGGGGACGTGCTA | 7.42 z-score |
| GACGATATCCTTATCCTGACGTGCTAG | 0.114 z-score |
| GACGGTTTCCTTTACCTGACGTGCTAG | 0.555 z-score |
| ACAAAGATTTTTATCAAATGGTGCTAG | 0.461 z-score |
| GACGATTTCAGTCCCGAGACGTGCTAG | 0.873 z-score |
| GACTCTTTCTGTCAGTTTTGGTGCTAG | 5.27 z-score |
| GAGTTCCTCTCTAGGCACTGGTGCTAG | -0.101 z-score |
| GACGGTTTTGGTTTCGGGACGTGCTAG | 7.08 z-score |
| TCAGTTTGCCCTATTTAACTGTGCTAG | 0.383 z-score |
